Results of several laboratories.
Each numbered part is a random draw from the data of one study; scales do not carry over between parts.
Sequence of UniProt Q6P2M8 (whole entry, looked up): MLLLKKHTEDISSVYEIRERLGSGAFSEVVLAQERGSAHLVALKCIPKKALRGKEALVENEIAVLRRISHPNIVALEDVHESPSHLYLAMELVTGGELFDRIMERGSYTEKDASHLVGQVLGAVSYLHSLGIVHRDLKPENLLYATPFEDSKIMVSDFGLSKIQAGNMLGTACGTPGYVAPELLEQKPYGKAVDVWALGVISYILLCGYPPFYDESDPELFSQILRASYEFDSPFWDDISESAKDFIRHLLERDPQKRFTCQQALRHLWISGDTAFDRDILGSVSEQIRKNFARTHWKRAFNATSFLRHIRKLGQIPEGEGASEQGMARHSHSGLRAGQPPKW
Sequence of UniProt P00519 (whole entry, unmodified, looked up): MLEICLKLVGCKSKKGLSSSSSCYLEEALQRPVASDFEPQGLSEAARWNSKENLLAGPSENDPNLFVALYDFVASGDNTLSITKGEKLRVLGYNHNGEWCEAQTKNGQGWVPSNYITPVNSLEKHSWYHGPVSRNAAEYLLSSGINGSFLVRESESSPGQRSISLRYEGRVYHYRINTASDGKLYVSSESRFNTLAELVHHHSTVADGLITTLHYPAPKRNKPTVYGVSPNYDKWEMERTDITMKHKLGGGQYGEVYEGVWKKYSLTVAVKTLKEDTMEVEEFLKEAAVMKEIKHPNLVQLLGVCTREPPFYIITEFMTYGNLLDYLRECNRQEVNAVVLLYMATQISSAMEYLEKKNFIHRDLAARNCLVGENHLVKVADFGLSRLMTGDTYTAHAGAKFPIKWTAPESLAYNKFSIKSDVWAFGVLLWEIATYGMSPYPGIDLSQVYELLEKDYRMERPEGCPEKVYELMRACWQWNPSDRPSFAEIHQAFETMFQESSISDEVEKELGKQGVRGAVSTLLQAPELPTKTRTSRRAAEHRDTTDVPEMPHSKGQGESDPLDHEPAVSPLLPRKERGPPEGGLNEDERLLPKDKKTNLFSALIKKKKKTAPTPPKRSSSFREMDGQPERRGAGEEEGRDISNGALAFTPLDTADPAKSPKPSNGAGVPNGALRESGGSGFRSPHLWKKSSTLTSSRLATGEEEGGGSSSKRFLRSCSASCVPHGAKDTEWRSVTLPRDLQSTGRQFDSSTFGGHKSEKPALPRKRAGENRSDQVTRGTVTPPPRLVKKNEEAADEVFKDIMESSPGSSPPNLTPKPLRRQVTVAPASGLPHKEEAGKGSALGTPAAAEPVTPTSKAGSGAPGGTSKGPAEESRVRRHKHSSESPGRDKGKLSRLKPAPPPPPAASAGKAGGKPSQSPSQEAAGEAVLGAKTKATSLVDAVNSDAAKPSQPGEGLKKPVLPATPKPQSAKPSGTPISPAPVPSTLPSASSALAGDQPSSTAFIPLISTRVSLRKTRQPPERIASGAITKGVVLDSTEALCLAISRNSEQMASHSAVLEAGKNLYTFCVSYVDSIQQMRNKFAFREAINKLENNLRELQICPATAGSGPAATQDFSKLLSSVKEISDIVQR
Sequence of UniProt O00506 (whole entry, looked up): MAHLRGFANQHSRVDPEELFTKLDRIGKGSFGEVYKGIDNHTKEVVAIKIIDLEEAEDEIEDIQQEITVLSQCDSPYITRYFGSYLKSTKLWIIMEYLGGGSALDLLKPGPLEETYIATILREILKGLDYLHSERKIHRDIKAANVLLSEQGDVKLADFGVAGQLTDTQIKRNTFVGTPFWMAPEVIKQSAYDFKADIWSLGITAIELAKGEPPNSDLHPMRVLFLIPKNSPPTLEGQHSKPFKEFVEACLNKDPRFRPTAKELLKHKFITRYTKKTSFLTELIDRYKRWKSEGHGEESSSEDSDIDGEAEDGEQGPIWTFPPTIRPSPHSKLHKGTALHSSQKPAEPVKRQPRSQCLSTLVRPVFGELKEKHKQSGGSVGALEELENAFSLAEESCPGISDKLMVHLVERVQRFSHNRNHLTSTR
Sequence of UniProt Q9UQB9 (whole entry, looked up): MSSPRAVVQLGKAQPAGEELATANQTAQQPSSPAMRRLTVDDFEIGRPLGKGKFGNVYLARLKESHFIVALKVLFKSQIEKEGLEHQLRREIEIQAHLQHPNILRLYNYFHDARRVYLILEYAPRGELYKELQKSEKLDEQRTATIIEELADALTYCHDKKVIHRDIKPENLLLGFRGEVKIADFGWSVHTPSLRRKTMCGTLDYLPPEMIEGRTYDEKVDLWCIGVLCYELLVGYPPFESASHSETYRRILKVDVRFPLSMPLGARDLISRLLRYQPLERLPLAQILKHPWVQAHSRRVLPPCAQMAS
Sequence of UniProt Q00532 (whole entry, looked up): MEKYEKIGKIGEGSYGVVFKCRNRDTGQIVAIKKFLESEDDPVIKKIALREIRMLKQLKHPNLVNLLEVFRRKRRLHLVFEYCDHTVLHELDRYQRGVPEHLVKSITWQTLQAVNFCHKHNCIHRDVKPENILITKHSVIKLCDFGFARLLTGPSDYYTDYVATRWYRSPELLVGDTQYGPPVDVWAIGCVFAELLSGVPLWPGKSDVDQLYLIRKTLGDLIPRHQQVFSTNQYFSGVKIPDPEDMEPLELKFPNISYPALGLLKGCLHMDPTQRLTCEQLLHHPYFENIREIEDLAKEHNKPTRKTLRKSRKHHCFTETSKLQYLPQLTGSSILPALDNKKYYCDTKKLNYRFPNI
Sequence of UniProt Q05655 (whole entry, looked up): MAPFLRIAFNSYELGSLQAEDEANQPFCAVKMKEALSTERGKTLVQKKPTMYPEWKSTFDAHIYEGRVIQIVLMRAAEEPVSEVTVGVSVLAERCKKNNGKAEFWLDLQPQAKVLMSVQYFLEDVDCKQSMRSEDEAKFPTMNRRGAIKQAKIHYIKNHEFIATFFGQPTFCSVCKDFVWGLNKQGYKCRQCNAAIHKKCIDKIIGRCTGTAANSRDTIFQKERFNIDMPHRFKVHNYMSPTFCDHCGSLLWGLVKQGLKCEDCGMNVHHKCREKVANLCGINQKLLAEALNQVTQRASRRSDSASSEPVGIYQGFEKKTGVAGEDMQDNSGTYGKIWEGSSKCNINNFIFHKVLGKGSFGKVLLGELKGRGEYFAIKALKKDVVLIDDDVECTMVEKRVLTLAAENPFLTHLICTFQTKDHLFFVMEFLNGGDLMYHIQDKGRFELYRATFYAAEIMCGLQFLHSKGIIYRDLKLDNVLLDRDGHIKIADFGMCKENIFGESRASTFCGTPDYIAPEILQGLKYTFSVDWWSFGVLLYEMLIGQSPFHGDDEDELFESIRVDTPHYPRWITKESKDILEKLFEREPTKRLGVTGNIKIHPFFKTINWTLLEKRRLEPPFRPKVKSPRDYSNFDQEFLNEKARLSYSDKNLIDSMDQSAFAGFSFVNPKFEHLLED
Sequence of UniProt P57059 (whole entry, looked up): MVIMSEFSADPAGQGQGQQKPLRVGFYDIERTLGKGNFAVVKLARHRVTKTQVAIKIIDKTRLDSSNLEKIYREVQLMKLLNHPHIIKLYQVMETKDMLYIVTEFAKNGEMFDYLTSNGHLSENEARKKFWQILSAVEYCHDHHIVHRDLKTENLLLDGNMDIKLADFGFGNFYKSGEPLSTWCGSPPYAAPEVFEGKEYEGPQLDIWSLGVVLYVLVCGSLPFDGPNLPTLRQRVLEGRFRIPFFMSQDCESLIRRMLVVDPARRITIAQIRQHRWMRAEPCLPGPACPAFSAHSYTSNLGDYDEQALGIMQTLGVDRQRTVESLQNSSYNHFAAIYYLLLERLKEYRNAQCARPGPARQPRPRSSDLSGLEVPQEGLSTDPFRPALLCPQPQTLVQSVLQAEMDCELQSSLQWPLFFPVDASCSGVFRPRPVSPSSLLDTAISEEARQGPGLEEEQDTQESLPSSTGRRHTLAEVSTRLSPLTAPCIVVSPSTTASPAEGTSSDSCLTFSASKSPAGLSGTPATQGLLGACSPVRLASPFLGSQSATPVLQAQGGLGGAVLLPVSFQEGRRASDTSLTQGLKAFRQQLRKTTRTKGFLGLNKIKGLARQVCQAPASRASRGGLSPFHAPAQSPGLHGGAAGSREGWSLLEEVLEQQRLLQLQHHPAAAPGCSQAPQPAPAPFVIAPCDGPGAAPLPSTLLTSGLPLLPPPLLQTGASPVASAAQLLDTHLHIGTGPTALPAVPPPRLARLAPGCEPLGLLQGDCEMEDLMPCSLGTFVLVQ
Sequence of UniProt Q04759 (whole entry, looked up): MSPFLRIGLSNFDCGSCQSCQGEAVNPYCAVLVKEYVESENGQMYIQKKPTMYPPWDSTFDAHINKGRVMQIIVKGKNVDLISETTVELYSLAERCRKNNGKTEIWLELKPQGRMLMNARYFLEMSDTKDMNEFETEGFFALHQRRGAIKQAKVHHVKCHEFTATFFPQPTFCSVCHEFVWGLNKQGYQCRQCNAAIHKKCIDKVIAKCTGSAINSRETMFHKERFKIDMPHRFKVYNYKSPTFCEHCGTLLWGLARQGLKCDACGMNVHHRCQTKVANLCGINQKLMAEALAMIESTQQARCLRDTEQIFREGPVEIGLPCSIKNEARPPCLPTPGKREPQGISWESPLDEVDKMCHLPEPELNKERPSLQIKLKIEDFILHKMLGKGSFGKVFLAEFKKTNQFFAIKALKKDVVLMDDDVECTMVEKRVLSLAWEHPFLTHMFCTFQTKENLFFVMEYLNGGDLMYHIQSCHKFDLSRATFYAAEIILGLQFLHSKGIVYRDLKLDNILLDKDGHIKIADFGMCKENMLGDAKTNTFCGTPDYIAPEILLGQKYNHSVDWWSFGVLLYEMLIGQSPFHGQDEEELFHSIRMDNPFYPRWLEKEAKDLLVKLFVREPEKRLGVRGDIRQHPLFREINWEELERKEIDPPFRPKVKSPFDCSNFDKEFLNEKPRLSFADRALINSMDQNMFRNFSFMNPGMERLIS

Sample 1
Target: TAR DNA-binding protein 43, full length, His tag (TARDBP, Homo sapiens, UniProt Q13148, residues 1-414)
Method: RNA Bind-n-Seq
Form: RNA
Medium: in vitro
Concentration: 20 nM
Notes: 6-mer, flanks averaged, single round
Together with: 150 mM KCl
Relative to: input library
Direction: higher = stronger binding
`AAGGCA` — result for “6-mer enrichment (R)”: 0.845.
`GCCAGC`: “6-mer enrichment (R)” 0.972.
`AUUUAU` — result for “6-mer enrichment (R)”: 0.635.
`ACGAUC` — result for “6-mer enrichment (R)”: 0.589.
`ACGUCA` — result for “6-mer enrichment (R)”: 0.633.
Under “6-mer enrichment (R)”, `AGGACA` is recorded as 0.889.
For `GGGUAG`, “6-mer enrichment (R)” read 4.09.
For `CACGCG`, “6-mer enrichment (R)” read 1.

Sample 2
Target: FOXO3, forkhead domain (mouse, UniProt Q9WVH4, residues 31-263)
Sequence of UniProt Q9WVH4 (31-263, looked up): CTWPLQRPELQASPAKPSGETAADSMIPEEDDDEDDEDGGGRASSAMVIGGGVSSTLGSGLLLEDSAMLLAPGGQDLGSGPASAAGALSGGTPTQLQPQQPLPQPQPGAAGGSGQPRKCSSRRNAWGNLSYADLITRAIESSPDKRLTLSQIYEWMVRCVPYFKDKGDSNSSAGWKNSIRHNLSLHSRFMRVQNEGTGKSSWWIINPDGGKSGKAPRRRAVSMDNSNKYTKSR
Method: protein-binding microarray
Form: hairpin DNA
Medium: in vitro
Concentration: not given
Notes: whole hairpin DNA, median over replicate spots
Relative to: not given
Direction: higher = stronger binding
The median fluorescence of `GAGGCCCTGTAAACAACGCCTCCTGGCGTTGTTTACAGGGCCTCACACTC (5mC at 7)` is reported as 5460 a.u.
`GAGGCCATCCAAACAACGCCTCCTGGCGTTGTTTGGATGGCCTCACACTC` has a median fluorescence of 4740 a.u.
For `GAGGCCATCTAAACAACGCCTCCTGGCGTTGTTTAGATGGCCTCACACTC`, the median fluorescence was 4320 a.u.
With `GAGGCCATGTAACCACCGCCTCCTGGCGGTGGTTACATGGCCTCACACTC` the median fluorescence was 4400 a.u.
`GAGGCCACGTAAACAACGCCTCCTGGCGTTGTTTACGTGGCCTCACACTC (5mC at 36)` gave a median fluorescence of 5170 a.u.
`GAGGCCATGTTAACAACGCCTCCTGGCGTTGTTAACATGGCCTCACACTC` has a median fluorescence of 3760 a.u.
`GAGGCCGTGTAAACAACGCCTCCTGGCGTTGTTTACACGGCCTCACACTC (5mC at 38)` gave a median fluorescence of 5490 a.u.
With `GAGGCCATGGAACCAACGCCTCCTGGCGTTGGTTCCATGGCCTCACACTC (5mC at 35)` the median fluorescence was 4210 a.u.

Sample 3
Structure (SMILES): CCOC(=O)c1cc2cc(-c3cc(C(=O)NCc4ccc(C(=O)O)cc4)nn3C)ccc2[nH]1
Concentration: 0.1 µM
The remaining binding was 99% (MAPK1 (Homo sapiens, UniProt P28482); cell-free assay, competition with immobilised ligand).
The remaining binding was 96% (EPHA4 (Homo sapiens, UniProt P54764); cell-free assay, competition with immobilised ligand).
The remaining binding was 81% (HIPK3 (Homo sapiens, UniProt Q9H422); cell-free assay, competition with immobilised ligand).
For STK25 (Homo sapiens, UniProt O00506); cell-free assay, competition with immobilised ligand: remaining binding read 100%.
For Aurora kinase C (AURKC, Homo sapiens, UniProt Q9UQB9); cell-free assay, competition with immobilised ligand: remaining binding read 100%.
It gave 97% for remaining binding (PRKCQ (Homo sapiens, UniProt Q04759); cell-free assay, competition with immobilised ligand).
FLT3 (Homo sapiens, UniProt P36888, D835V); cell-free assay, competition with immobilised ligand — remaining binding: 90%.
The remaining binding was 88% (Tyrosine-protein kinase ABL1, phosphorylated (ABL1, Homo sapiens, UniProt P00519, E255K); binding, competition with immobilised ligand).
For PNCK (Homo sapiens, UniProt Q6P2M8); cell-free assay, competition with immobilised ligand: remaining binding read 97%.
The remaining binding was 77% (CDKL1 (Homo sapiens, UniProt Q00532); cell-free assay, competition with immobilised ligand).
PRKCD (Homo sapiens, UniProt Q05655); cell-free assay, competition with immobilised ligand — remaining binding: 90%.
The remaining binding was 100% (SRPK3 (Homo sapiens, UniProt Q9UPE1); cell-free assay, competition with immobilised ligand).
The remaining binding was 97% (SIK1 (Homo sapiens, UniProt P57059); competition binding).

Other studies, line by line
Concentration: 10 µM
Under “log2 fold change”, NS(=O)(=O)c1cc(C2(O)NC(=O)c3ccccc32)ccc1Cl (centres unmarked) is recorded as 0.27 (Sarcocystis neurona; parasite growth; 96 h; relative to: untreated).
CCCCn1c(=O)c2[nH]c(C34CC5CC(CC3C5)C4)nc2n(CCCO)c1=O: “nuclear SOX9 intensity” 76.6 % of DMSO (mouse MPNST tumor cells; high-content immunofluorescence imaging, item: nuclear SOX9; 12 h, mean of 2 replicates; relative to: DMSO control, higher = more nuclear SOX9).
Cc1ccnc2c1NC(=O)c1cccnc1N2C1CC1: “log2 fold change” 0.29 (Sarcocystis neurona; parasite growth; 96 h; relative to: untreated).
